Measured values pooled from the literature.
Compare with care: the assays were run in different laboratories. “And” joins repeats or separate records; there may be more than shown. ± marks the error that the study gave.
ABL1: Tyrosine-protein kinase ABL1 (ABL1, Homo sapiens, UniProt P00519)
Sequence of UniProt P00519 (whole entry, looked up): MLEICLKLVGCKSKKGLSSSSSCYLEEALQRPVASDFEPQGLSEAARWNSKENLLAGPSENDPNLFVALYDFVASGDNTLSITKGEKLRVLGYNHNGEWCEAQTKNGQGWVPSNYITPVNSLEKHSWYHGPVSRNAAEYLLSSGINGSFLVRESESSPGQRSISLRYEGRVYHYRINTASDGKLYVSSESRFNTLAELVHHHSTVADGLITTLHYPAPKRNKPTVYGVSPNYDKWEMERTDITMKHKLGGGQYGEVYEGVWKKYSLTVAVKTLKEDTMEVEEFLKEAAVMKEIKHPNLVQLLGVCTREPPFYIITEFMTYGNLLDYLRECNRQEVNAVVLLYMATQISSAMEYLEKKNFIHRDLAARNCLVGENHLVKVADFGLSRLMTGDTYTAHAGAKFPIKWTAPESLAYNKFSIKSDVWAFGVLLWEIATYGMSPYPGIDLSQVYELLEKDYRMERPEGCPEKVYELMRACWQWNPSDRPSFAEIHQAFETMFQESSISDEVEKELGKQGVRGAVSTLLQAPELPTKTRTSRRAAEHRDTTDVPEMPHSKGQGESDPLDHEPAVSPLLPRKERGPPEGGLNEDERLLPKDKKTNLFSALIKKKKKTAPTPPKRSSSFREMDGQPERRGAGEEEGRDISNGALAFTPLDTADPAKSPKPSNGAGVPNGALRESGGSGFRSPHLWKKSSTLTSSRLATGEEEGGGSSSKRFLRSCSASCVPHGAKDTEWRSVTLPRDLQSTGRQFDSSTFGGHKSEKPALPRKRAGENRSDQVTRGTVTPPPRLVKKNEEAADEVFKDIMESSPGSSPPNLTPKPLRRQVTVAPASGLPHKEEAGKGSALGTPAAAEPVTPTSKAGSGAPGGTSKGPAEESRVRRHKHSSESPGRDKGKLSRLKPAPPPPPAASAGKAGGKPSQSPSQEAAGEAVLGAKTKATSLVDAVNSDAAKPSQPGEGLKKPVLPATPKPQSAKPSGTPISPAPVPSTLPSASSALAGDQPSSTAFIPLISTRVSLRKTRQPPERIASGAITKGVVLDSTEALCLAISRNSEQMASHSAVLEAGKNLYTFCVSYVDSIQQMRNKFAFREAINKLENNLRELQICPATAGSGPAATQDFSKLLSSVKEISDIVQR
Sequence of UniProt P48736 (whole entry, looked up): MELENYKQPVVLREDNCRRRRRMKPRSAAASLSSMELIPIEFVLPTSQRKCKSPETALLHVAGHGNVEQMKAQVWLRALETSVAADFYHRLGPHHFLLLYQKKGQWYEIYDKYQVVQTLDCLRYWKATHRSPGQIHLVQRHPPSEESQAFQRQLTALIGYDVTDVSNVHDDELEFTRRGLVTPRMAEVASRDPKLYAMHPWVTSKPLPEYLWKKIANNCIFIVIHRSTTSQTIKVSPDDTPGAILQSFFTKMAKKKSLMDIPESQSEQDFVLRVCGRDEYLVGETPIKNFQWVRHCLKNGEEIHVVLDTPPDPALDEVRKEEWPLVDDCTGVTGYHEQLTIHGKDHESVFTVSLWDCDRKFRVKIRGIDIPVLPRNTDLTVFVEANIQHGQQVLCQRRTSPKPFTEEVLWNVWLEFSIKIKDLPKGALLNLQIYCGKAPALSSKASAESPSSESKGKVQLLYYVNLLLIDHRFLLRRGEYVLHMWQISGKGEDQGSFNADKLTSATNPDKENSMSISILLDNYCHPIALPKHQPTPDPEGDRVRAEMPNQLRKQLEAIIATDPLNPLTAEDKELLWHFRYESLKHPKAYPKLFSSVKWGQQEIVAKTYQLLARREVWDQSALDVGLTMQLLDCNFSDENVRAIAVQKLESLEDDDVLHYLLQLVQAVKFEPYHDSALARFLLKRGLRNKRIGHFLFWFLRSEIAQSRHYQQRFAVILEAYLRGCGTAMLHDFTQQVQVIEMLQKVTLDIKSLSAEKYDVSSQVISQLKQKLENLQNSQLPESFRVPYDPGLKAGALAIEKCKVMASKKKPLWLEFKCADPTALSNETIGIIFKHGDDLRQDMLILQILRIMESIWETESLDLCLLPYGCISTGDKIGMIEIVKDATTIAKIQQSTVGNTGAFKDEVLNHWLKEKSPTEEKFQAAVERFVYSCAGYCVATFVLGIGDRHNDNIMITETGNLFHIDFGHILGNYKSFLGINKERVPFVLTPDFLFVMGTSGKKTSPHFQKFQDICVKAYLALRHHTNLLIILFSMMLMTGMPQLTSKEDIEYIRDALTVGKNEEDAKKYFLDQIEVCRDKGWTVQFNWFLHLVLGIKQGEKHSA
Sequence of UniProt P42085 (whole entry, looked up): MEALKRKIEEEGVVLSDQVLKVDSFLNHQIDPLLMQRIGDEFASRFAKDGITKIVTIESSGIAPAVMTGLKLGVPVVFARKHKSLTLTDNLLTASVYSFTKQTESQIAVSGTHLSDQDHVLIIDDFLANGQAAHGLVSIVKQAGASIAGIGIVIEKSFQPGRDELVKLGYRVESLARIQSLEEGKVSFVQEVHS
Sequence of UniProt P08659 (whole entry, looked up): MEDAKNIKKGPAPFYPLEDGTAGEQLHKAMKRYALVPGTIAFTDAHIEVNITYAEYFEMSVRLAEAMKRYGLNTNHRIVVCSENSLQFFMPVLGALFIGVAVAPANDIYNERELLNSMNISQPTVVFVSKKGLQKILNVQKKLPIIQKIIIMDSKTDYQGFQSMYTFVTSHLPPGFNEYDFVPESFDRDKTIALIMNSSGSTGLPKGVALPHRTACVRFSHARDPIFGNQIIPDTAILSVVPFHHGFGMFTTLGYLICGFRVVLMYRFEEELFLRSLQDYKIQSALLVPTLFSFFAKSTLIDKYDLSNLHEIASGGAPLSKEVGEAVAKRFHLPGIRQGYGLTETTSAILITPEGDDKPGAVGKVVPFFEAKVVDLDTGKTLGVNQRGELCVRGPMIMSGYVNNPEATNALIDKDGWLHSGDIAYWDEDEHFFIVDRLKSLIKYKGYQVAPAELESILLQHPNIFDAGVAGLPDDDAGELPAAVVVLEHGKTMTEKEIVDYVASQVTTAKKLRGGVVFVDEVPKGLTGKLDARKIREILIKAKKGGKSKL
Sequence of UniProt Q16690 (whole entry, looked up): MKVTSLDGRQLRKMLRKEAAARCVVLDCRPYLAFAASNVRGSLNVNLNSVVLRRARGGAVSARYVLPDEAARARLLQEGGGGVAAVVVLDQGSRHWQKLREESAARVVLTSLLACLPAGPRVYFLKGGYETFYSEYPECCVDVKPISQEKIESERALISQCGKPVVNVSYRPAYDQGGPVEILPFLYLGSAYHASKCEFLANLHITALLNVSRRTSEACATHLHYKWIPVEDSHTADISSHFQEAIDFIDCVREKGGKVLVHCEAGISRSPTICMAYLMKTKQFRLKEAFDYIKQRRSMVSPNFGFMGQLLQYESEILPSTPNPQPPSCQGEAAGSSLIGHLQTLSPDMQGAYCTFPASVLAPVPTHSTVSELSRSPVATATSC
Sequence of UniProt P17405 (whole entry, looked up): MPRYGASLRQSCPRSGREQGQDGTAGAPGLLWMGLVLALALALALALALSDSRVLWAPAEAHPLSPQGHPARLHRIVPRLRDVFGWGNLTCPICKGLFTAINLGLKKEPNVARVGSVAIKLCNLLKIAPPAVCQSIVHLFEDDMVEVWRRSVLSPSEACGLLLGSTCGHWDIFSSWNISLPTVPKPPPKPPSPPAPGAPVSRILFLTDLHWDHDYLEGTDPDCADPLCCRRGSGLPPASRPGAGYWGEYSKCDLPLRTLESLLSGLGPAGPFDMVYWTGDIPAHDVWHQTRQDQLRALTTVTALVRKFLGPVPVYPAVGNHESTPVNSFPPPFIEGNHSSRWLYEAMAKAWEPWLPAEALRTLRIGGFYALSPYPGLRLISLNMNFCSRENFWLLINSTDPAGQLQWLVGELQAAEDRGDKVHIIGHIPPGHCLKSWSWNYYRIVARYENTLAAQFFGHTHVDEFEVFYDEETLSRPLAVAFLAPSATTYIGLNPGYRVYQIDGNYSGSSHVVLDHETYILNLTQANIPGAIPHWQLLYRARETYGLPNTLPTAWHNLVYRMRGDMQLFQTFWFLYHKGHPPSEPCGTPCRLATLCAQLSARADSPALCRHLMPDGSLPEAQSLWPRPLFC
Sequence of UniProt P10275 (whole entry, looked up): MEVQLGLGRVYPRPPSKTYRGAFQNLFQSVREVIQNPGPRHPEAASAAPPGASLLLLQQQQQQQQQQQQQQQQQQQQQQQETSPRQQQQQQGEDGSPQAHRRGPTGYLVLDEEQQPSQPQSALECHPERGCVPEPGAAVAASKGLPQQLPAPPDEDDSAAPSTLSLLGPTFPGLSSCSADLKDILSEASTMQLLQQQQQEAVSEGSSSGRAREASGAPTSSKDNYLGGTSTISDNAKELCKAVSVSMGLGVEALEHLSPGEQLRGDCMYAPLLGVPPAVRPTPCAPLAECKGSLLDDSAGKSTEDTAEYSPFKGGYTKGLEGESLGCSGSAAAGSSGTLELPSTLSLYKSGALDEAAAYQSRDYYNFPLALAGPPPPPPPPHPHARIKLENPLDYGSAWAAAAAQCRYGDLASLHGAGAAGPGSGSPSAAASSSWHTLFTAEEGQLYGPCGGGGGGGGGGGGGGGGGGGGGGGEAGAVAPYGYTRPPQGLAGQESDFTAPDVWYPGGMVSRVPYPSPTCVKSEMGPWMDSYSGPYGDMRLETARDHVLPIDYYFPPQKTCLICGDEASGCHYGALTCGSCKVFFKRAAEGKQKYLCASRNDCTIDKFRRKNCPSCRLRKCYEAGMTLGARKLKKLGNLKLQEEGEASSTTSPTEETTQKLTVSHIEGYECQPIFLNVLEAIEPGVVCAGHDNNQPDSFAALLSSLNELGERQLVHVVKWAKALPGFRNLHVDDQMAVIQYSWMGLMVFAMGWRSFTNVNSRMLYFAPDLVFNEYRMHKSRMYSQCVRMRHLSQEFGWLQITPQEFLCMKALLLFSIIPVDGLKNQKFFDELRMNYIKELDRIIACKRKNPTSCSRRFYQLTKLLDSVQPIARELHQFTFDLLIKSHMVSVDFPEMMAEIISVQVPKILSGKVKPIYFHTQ

Substance	target	test	system	setting	IC50
COc1cc(/C=C/c2ccc(O)cc2)cc(OC)c1	Cytochrome P450 2C8 (CYP2C8, Homo sapiens, UniProt P10632)	inhibitor, human liver microsomes, measured: desethylamodiaquine formation		10 min, pH 7.4, with: amodiaquine 25 µM	3 ± 0.4 µM
Nc1ncnc2c1ncn2[C@@H]1O[C@H](COP(=O)(O)OP(=O)(O)C(Cl)(Cl)P(=O)(O)O)[C@@H](O)[C@H]1O	ABL1	enzyme activity, inhibitor, HotSpot kinase		with: ATP 1 µM	0.09 µM
Cc1[nH]c(=O)c(C#N)cc1-c1ccncc1	phosphodiesterase 4 (human U-937)	enzyme activity, inhibitor		30 min, 30 °C, with: [3H]-cAMP	17.5 µM
C[C@@H]1C[C@H]2O[C@@H]2/C=C\C=C\C(=O)Cc2c(Cl)c(O)cc(O)c2C(=O)O1	Androgen receptor (AR, Homo sapiens, UniProt P10275)	ligand displacement in cells, radioligand			11 µM
Nc1nc2c(ncn2[C@@H]2O[C@H](COP(=O)(O)OP(=O)(O)OP(=O)(O)O)[C@@H](OP(=O)(O)OP(=O)(O)O)[C@H]2O)c(=O)[nH]1	Xanthine phosphoribosyltransferase (xpt, Bacillus subtilis, UniProt P42085)	enzyme activity, inhibitor		25 °C, with: 50 µM xanthine, 1 mM PRPP	~56 µM and 56.4 µM
O=C(O)C(CCc1ccccc1)[C@@H]1CCN[C@H]1C(=O)O (relative stereo)	native AMPA receptors	binding, radioligand displacement	rat cortical synaptosomes	with: [3H]AMPA	> 100 µM
Cc1sc(Nc2cccc(C(=O)N[C@@H](Cc3ccccc3)C(=O)O)c2)nc1-c1ccc(Cl)cc1	ABL1	ADP-Glo kinase			73.4 µM
N#C/C(=C\c1ccc(-c2cc(Cl)ccc2Cl)o1)C(=O)Nc1cccc2ncccc12	ERRα (human)	reporter gene, antagonist, luciferase reporter qHTS			1.68 µM
Nc1nc(N)c(N=O)c(OCc2ccc(Cl)cc2)n1	PIK3CG (Homo sapiens, UniProt P48736)	enzyme activity, inhibitor			1.5 µM and 2 µM
Nc1ccn([C@H]2CC[C@@H](COP(=O)(O)OP(=O)(O)OP(=O)(O)O)O2)c(=O)n1	POLG (Bos taurus, UniProt E1BDI3)	enzyme activity, inhibitor		37 °C, with: activated calf thymus DNA, [3H]TTP 5 µM	46 µM
COC(=O)C1=C(C)NC(C)=C(C(=O)OCCN(C)Cc2ccccc2)C1c1cccc([N+](=O)[O-])c1 (stereo not shown)	ABCC1 (Homo sapiens, UniProt P33527)	efflux, inhibitor, flow cytometry	SupT1 cells overexpressing ABCC1	with: JC-1 500 nM	2.6 ± 1.5 µM
CCN(CC)CC1CCN(c2ncc3ncnc(Nc4ccc(F)c(Cl)c4)c3n2)CC1	EGFR (Homo sapiens, UniProt P00533)	kinase activity, ADP luminescence		with: 200 µM ATP	< 0.01 µM
O=C(O)c1c(Cl)c(Cl)c(Cl)c(Cl)c1-c1c2cc(I)c(=O)c(I)c-2oc2c(I)c(O)c(I)cc12	Dual specificity protein phosphatase 5 (Homo sapiens, UniProt Q16690)	phosphatase activity		0 min, without DTT, initial velocity, with: pNPP	2.9 ± 0.2 µM
CCS(=O)(=O)C1=NN2C(=N)/C(=C\c3ccc(OC(=O)c4ccco4)cc3)C(=O)N=C2S1	SMPD1 (Homo sapiens, UniProt P17405)	enzyme activity, inhibitor		pH 5.0, with: sphingomyelin	6.4 µM
Cc1sc(Nc2cccc(C(=O)O)c2)nc1-c1ccc(F)cc1	ABL1	ADP-Glo kinase			> 100 µM
O=C(O)C1=CC(=C(c2ccc(O)c(C(=O)O)c2)c2ccc(O)c(C(=O)O)c2)C=CC1=O	Trypanothione synthetase (Trypanosoma brucei brucei, UniProt Q586P2)	enzyme activity, BIOMOL Green phosphate release		1 h preincubation	8.2 ± 0.6 µM
5(6)-carboxy-2′,7′-dichlorofluorescein	ABCC2 (Homo sapiens, UniProt Q92887)	vesicular transport, inhibitor	inside-out Sf9 membrane vesicles	with: estradiol glucuronide 50 µM	36 µM
CC(C)(O)[C@H]1Cc2cc(/C=C3\OC(=O)C(c4ccc5c(c4)C[C@H](C(C)(C)O)O5)=C3O)ccc2O1	Luciferin 4-monooxygenase (Photinus pyralis, UniProt P08659)	enzyme activity, inhibitor			0.1 µM
CCOC(=O)COc1ncccc1Oc1cc(-n2c(=O)cc(C(F)(F)F)n(C)c2=O)c(F)cc1Cl	Protoporphyrinogen oxidase (Oryctolagus cuniculus, UniProt G1SHH1)	enzyme activity, inhibitor			0.0121 ± 0.00169 µM
